Experimental data from different studies.
Numbered parts are unrelated; each lists some results of a single study.
UniProt O15294, sequence (whole entry, looked up): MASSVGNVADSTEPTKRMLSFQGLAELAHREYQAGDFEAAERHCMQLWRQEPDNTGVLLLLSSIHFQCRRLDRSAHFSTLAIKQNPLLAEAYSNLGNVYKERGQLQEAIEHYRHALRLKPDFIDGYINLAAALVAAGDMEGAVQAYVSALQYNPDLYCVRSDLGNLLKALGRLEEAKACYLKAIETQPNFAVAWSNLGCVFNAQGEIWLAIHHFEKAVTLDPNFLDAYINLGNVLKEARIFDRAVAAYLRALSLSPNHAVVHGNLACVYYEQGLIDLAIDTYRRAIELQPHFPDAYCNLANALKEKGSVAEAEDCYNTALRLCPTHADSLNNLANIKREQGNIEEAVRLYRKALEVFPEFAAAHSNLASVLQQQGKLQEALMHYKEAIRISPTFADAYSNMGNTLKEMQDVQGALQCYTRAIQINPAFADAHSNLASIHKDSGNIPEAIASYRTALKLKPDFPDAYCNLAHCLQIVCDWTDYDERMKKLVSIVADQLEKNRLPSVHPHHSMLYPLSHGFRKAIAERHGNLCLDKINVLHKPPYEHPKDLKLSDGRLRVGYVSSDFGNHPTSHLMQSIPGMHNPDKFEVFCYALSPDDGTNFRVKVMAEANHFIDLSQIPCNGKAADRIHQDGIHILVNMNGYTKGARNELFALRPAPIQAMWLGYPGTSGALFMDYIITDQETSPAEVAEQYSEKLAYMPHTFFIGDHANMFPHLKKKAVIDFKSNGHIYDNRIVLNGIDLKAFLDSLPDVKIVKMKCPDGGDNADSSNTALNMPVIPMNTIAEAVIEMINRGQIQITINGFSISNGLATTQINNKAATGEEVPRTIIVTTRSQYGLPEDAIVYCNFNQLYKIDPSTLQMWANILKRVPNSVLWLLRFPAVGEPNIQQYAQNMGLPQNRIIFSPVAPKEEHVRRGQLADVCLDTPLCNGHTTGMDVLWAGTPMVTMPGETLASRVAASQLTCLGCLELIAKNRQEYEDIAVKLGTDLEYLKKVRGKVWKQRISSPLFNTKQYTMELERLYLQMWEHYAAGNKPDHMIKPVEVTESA

Study 1
Target: Histone acetyltransferase KAT6A, both winged helices, GST fusion (KAT6A, Homo sapiens, UniProt Q92794, residues 1-181)
Method: protein binding microarray
Molecule type: double-stranded DNA, one strand shown
Medium: in vitro
Concentration: not given
Notes: 8-mer, flanks averaged, mean of 2 arrays, mostly near background
Reference: not given
Reading: higher = stronger binding
Residues (chain): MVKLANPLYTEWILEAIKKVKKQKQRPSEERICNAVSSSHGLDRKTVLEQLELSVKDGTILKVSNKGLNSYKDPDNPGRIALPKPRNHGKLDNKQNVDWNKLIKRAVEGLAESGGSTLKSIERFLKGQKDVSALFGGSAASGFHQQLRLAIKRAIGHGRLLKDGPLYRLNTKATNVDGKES
Strand	E-score
AGCTGCAC	-0.0939
CAAGTGCG	0.153
AACGCGGT	0.311
CTCTCCCA	-0.204
CCGCACCA	0.0635
GCGTTAGA	0.0978
GCACGTGC	0.0777
ATTGGTCA	-0.192

Study 2
Target: RNA binding protein fox-1 homolog 2, RRM domain, GST-SBP tag (RBFOX2, Homo sapiens, UniProt O43251-10, residues 100-194)
Method: RNA Bind-n-Seq
Molecule type: RNA
Medium: in vitro
Concentration: 365 nM
Notes: natural RNA segment, single round, ends assumed
Reference: no-protein control
Reading: higher = stronger binding
All sequences stand within: GGGAGUUCUACAGUCCGACGAUC … UGGAAUUCUCGGGUGCCAA
Residues (chain): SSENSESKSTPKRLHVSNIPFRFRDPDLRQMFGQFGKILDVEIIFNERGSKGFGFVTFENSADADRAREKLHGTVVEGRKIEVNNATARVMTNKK
Strand	RBNS enrichment (R)
AAAAUAAAUAUUUUUGGUAUUUAUUUAUGAAAUAUUUGAACAUUUUUUCAAUAAUUCCUUUUUACUUCUAGGAAGUCUCAAAAGACCAUCUUAAAUUAUUAUAUGUUUGG	0.828
CCCUGCCCUCAUACAAGAUUUUUCUCAGCCUUCAGCCUACCACUGCAGAAUCCGAUGUGACCCACCAUUAGGGAGUCUGCAUCUUGGAAGAGUUGGAAAUAACCCUUUAA	0.746
UUUUCCAUGUGUCAAAAAUCUCAUCACCCCACUUGCCUAAUUAGAGUAACCCAGCCCCUAAAUUUACAUAGAUUGACUAUUCAUAUGCUCUAACUACUUAUAAUAGUUUA	1.36
GGGCAGAUGCUAGCACUGCCUGUUCUUAGUUCUCCUUCCAUUCCUGUCCUGAAGUUCUAACUGCCGAGCCUUACCUUCAUAGAAGGUCUUCACUGCCAGAGUGGGCAUCU	0.318
GUAUGUCUAUUGAUCCAUUUCUAGAAAAGAUGGUCGUAACUUAAGGAGUGAUAUUUGUGGAGGAGGAGCUGUACAGUUAUCACUGUGUGUGUUUUGUUAAUACAAGAGGC	0.598
AACUAUGCAUUUUUGUCUGAAAGUAGGCACUGAAGCAUUGAAGUAAGGUAAGGAGACAUCCUCUUCGACACCGCUGUUGACCGAGGAGCUCAGGGCCACUUUGAGUGUGA	0.359
GGUUGGACUGCUCAUGGAUUUGGUAGCUGUUUUAAAAAGGUAGCUGUGAUACAAGCCCCAGGACACCCCCACCCAAAGAGCCAAAGAAUAGUUCCCGCGACAUUCCGCCU	0.201
CAAAGACCUUGUUACACAGAGAGCCUCCGAUAUCCUAAGUAGGGAGGACACUGUCAGUAGGGAACGGAAUGAAAACUCAAAUGUUGCCUGCAGUUGAGCAAGGAAGCUGA	0.569

Further values, each from its own experiment
Substance	target	test	test system	setting	scale	measurement	result
HTPWRPQRNEHHRYV	UDP-N-acetylglucosamine--peptide N-acetylglucosaminyltransferase 110 kDa subunit (OGT, Homo sapiens, UniProt O15294)	binding, phage display NGS	peptide	panning round 2	reference: input library	minimum log2 enrichment ratio	2.63
PhoQ, residues 284 288 289 292 302 303 SSTLSG	PhoP, residues 12 14 15 18 19 LWHVM (Escherichia coli, UniProt P23836)	Sort-seq, item: YFP reporter	E. coli	PhoQ-PhoP variant library, together with: 10 µM Mg2+	reference: high Mg2+ state, higher = stronger signaling	fold induction	10.2

Repeated from above (study 1):
Strand	E-score
ATTGGTCA	-0.192
CCGCACCA	0.0635
